Assay results of several laboratories.
Compare with care: the assays were run in different laboratories.

The solubility of `Nc1cnc(Cl)cc1NC(=O)Nc1cc(C(F)F)ns1` is reported as ≥ 100 µM (HPLC; PBS; 24 h, pH 7.4).
`CC1N=C(c2ccccc2F)c2cc(Nc3ccccc3C(F)(F)F)ccc2NC1=O` (centres unmarked) gave a solubility of 8.09 µM (shake flask; PBS; 24 h, pH 7.4).
`O=c1c2ccccc2[se]n1CCCn1[se]c2ccccc2c1=O` gave a solubility of 4 to 5 µg/mL (HPLC; water; 24 h, 25 °C).
`CCCCCc1cc(OC(=O)C(NC(=O)CCC(=O)O)C(C)C)c2c(c1)OC(C)(C)C1CCC(C)=CC21` (centres unmarked) gave a solubility of 37.6 µg/mL (shake flask; water; 24 h, 25 °C).
With `O=P([O-])([O-])Oc1ccc(-c2cc(=S)ss2)cc1.[Na+].[Na+]` the solubility was 2080 µg/mL (HPLC; water; 1 h, 25 °C).
`CCCCCCCc1ccc(NC(=O)CCCN[C@H](C(N)=O)[C@H](O[C@@H]2O[C@H](CN)[C@@H](O)[C@H]2O)[C@H]2O[C@@H](n3ccc(=O)[nH]c3=O)[C@H](O)[C@@H]2O)cc1` gave a solubility of 110 µg/mL (water).
The solubility of `O=C1C(O)=C(Nc2ccc(Cl)cc2)C(=O)c2ccccc21` is reported as 100 µM (water; 12 h).
`C[C@]12C(=O)[C@](C)(C(c3ccccc3)=C1c1ccccc1)C1(Br)C(=O)N(CCN)C(=O)C12` (some centres unmarked) has a solubility of 10800 µg/mL (HPLC; water; 20 °C).
The solubility of `O=c1c2ccccc2[se]n1CCn1[se]c2ccccc2c1=O` is reported as 2 to 3 µg/mL (HPLC; water; 24 h, 25 °C).
`O=C(NCCNCCO)c1cn(Cc2ccccc2)c2cc(OCc3ccc(C(F)(F)F)cc3)c(Cl)cc2c1=O` gave a solubility of < 5 µM (shake flask; PBS; 24 h, pH 6.5, 25 °C).
With `CC(=O)N[C@H]1CSC(=O)[C@H](Cc2ccccc2)NC(=O)[C@H](Cc2ccccc2)NC(=O)COCCOCCNC1=O` the solubility was ~10000 µM (water).
